{"data": "Measured values gathered from unrelated publications", "note": "Each numbered part is a random draw from the data of one study; scales do not carry over between parts. Positions count from the first letter of the parent shown."}
{"data": "Block 1", "target": "CCND1, cyclin fold, Cln2 fusion (human)", "method": "yeast growth competition, sequencing", "matrix": "yeast", "notes": "weak parent motif", "reference": "not given", "reading": "higher = stronger binding", "parent": "RB1 docking peptide (human); PKPLKKLRFDIEG"}
{"Change": "L7A", "normalised enrichment score": 0.62}
{"Change": "K6P", "normalised enrichment score": 1.15}
{"Change": "I11C", "normalised enrichment score": 0.144}
{"Change": "G13I", "normalised enrichment score": -0.23}
{"Change": "F9A", "normalised enrichment score": 0.349}
{"Change": "G13K", "normalised enrichment score": 0.414}
{"Change": "E12D", "normalised enrichment score": -0.702}
{"Change": "E12A", "normalised enrichment score": -0.458}
{"Change": "E12W", "normalised enrichment score": 0.45}
{"Change": "I11L", "normalised enrichment score": 0.254}
{"Change": "I11E", "normalised enrichment score": 0.474}
{"Change": "E12V", "normalised enrichment score": -0.37}
{"data": "Block 2", "Substance": "PhoQ, residues 284 288 289 292 302 303 ALASRC", "method": "Sort-seq", "measured": "YFP reporter", "matrix": "E. coli", "notes": "PhoQ-PhoP variant library", "added": "10 µM Mg2+", "reference": "high Mg2+ state", "reading": "higher = stronger signaling"}
{"target": "PhoP, residues 12 14 15 18 19 NYFRM (Escherichia coli, UniProt P23836)", "fold induction": 1.27}
{"target": "PhoP, residues 12 14 15 18 19 QYFSL (Escherichia coli, UniProt P23836)", "fold induction": 4.32}
{"target": "PhoP, residues 12 14 15 18 19 TQALL (Escherichia coli, UniProt P23836)", "fold induction": 7.86}
{"data": "Block 3", "target": "Interferon regulatory factor 3, full length, phosphomimetic (IRF3, Homo sapiens, UniProt Q14653, residues 1-427, S386D/S396D/S398D/S402D/T404D/S405D)", "method": "protein-binding microarray", "form": "double-stranded DNA, one strand shown", "matrix": "in vitro", "concentration": "2540 nM top", "notes": "60-bp whole probe", "added": "salmon DNA 0.4 mg/ml", "reference": "random background probes", "reading": "higher = stronger binding", "all sequences stand within": "GCCTAGCAC … GTCTTGATTCGCTTGACGCTGCTG", "Target sequence (chain)": "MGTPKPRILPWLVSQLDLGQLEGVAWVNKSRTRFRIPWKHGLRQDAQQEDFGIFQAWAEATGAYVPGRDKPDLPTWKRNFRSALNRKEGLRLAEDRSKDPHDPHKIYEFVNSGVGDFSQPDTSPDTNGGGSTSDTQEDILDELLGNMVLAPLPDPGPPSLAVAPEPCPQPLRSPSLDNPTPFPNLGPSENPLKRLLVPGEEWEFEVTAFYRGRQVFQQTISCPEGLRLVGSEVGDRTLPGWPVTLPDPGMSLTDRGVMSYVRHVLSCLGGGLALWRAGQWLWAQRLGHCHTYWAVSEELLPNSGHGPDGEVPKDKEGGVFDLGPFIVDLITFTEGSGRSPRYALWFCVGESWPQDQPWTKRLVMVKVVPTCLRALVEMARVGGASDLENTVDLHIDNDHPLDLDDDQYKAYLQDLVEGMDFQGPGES"}
{"Strand": "TTAGGTCTCCTAATGCTTTAGTGCTAG", "fitted relative affinity [z-score]": 1.6}
{"Strand": "TTAGATCTCCTTTTCCTTTAGTGCTAG", "fitted relative affinity [z-score]": 3.67}
{"Strand": "TGAGGTTTCGGTTTCGGTTAGTGCTAG", "fitted relative affinity [z-score]": 11.7}
{"Strand": "TCATCTCTCTGTGACACACTGTGCTAG", "fitted relative affinity [z-score]": 1.26}
{"Strand": "TTAGGTGTCCTTATCCTTTAGTGCTAG", "fitted relative affinity [z-score]": 3.25}
{"Strand": "GACGGACTCCTTATCCTGACGTGCTAG", "fitted relative affinity [z-score]": 0.904}
{"Strand": "TTAGAACTGAGACTGGATCAGTGCTAG", "fitted relative affinity [z-score]": -0.185}
{"Strand": "ATAGATATCAGTATCGATTAGTGCTAG", "fitted relative affinity [z-score]": 2.09}
{"Strand": "TTAGTACTGCTTTTCCTTTAGTGCTAG", "fitted relative affinity [z-score]": 1.42}
{"Strand": "GACGGTATCGACACTGGGGAGGTGCTA", "fitted relative affinity [z-score]": 0.631}
{"Strand": "TCACTTCCCAATTGTCTTACTGTGCTA", "fitted relative affinity [z-score]": 2.66}
{"Strand": "TTAGGTTTCCTTATCCTTTTGTGCTAG", "fitted relative affinity [z-score]": 7.59}
{"data": "Block 4", "target": "Histone acetyltransferase KAT6A, winged helix 1, GST fusion (KAT6A, Homo sapiens, UniProt Q92794, residues 1-85)", "method": "protein binding microarray", "form": "double-stranded DNA, one strand shown", "matrix": "in vitro", "concentration": "not given", "notes": "8-mer, flanks averaged, mean of 2 arrays, mostly near background", "reference": "not given", "reading": "higher = stronger binding", "Residues (chain)": "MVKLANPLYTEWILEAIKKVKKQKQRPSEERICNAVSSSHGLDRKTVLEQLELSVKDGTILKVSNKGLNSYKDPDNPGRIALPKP"}
{"Strand": "GTTTGTAA", "E-score": -0.13}
{"Strand": "ACGCACGC", "E-score": 0.262}
{"Strand": "CTCTCAGC", "E-score": -0.0792}
{"Strand": "AGATATCC", "E-score": -0.0258}
{"Strand": "ACCGAAGC", "E-score": 0.105}
{"Strand": "GTAAACAC", "E-score": 0.117}
{"Strand": "GCCAATAC", "E-score": 0.0604}
{"Strand": "AAAGTTAG", "E-score": -0.109}
{"Strand": "ACGCTCCT", "E-score": 0.0201}
{"Strand": "AACGAGTA", "E-score": -0.0874}
{"Strand": "CGTCCAAA", "E-score": 0.0437}
{"Strand": "ACTTAGGC", "E-score": -0.158}
{"Strand": "CCGCAGCG", "E-score": 0.368}
{"note": "Excerpt of the above (block 3):"}
{"Strand": "TTAGATCTCCTTTTCCTTTAGTGCTAG", "fitted relative affinity [z-score]": 3.67}
{"Strand": "TGAGGTTTCGGTTTCGGTTAGTGCTAG", "fitted relative affinity [z-score]": 11.7}
